Experimental data of several laboratories.
Every numbered part comes from another study and shows a few of its results, in no order.

Series 1
Target: Sal-like protein 4, full length isoform A (SALL4, Homo sapiens, UniProt Q9UJQ4, residues 1-1053)
Chain of UniProt Q9UJQ4 (whole entry, looked up): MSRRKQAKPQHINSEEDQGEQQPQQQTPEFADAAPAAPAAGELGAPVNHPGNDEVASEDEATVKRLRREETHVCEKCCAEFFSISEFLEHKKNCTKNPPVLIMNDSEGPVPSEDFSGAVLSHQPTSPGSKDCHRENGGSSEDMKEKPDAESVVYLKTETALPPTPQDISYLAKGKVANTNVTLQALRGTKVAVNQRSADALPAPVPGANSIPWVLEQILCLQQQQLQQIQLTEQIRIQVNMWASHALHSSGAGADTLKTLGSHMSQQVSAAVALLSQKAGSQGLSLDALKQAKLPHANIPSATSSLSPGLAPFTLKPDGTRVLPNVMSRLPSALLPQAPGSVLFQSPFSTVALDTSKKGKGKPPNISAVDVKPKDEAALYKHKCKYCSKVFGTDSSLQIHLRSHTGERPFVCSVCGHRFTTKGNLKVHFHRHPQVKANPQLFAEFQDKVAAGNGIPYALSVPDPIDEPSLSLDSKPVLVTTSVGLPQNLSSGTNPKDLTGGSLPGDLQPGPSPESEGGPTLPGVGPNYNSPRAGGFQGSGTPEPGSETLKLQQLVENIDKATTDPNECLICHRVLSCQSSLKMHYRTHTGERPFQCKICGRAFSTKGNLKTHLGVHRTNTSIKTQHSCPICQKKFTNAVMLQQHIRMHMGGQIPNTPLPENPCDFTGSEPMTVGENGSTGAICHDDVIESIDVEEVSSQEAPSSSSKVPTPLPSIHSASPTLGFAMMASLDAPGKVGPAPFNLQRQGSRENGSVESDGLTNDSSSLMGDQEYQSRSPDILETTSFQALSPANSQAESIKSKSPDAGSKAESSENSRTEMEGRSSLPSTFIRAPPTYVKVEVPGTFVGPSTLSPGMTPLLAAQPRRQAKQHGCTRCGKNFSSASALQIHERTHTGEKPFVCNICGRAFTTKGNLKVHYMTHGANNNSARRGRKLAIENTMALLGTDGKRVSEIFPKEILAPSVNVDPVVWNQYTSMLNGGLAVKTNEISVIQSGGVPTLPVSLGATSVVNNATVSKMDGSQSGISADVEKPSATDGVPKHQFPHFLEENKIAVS
Technique: universal PBM
Form: double-stranded DNA, one strand shown
Medium: in vitro
Tested at: 600 nM
Notes: 8-mer, flanks averaged, mean of replicates
Reading: higher = stronger binding
Endpoint: E-score
ACCGGTTC: -0.19
ACTGGTAA: 0.129
AGATTGAT: 0.0607
AGGTAAAT: 0.27
ACAGGTGC: -0.151
ACAAAGAC: 0.16
CCCGCGGC: -0.287
CGACCACA: -0.182
ATAACCAG: 0.267
CCGCTGAG: -0.278
CAAGTTAC: 0.0566
CCTAGTAA: -0.0781
TGTAATAA: 0.413
GGATGAGA: -0.0394
ACCCATTC: -0.0449
CGGCGTTA: -0.229
CCTCCCAG: -0.323
CGAACATC: -0.0195

Series 2
Target: RING finger protein unkempt homolog, zinc fingers 1-6, GST-SBP tag (UNK, Homo sapiens, UniProt Q9C0B0, residues 30-357)
Technique: RNA Bind-n-Seq
Form: RNA
Medium: in vitro
Tested at: not given
Notes: RNA with constant flanks, human and mouse sites, ends assumed
Baseline: input RNA pool
Reading: higher = stronger binding
Endpoint: bound/input enrichment
All sequences stand within: GGGAGUUCUACAGUCCGACGAUC … CAACAGAGGAUUGAGCAUCA
Construct (chain): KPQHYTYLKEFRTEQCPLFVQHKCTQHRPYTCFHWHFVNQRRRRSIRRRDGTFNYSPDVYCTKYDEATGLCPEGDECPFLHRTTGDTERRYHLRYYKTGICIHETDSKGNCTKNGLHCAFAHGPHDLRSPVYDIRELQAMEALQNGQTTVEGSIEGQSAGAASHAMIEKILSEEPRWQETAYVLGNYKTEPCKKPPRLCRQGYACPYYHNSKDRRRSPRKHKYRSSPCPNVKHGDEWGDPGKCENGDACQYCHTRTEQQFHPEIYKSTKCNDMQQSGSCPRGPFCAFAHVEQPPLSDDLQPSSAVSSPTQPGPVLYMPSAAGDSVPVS
AUAAAAGCCAUGUUGAGUGGCCCAGGUCAGUUUGCUGAGAACGAAACCAAUGAGGUCAAUUUUAGAGAGAUACCUUCACAUGUGCUAUCGAAAGUAUGCAUGUAUUUUACGUACAAGGUU: 0.116 ratio
AGUGAAUACUUACUAUAAUUUGACUUGAAUAUGUAGCUCAUCCUUUACACCAACUCCUAAUUUUAAAUAAUUUCUACUCUGUCUUAAAUGAGAAGUACUUGGUUUUUUUUUUUCUUAAAU: 1.1 ratio
GGCACGAGGCUUCCUGCCUCUUCCCUCUUCCUCCUUGUAAGAGCUUCAACCCAAGUCCUCCAAUUCACAUUAAGGAAUCCAUACUAAAGGGGGACUUGAGGGUGUGUACCCUACAGGCCA: 0.098 ratio
GAAUACUUAUGAGAAUCAGCAUAAAGAAAUGAAUGAAAUCAGUGGUAAACAGGUGUUAAUUGUGUCAGUUUUGAAUCUUUCUAACAAACUGGAGAUCUCCCUUUUAUGUAUGUGUAGCUU: 0.335 ratio
ACAAGAGUGGCUGUCUCCUCACCCAUGAGUCAGCAUCAGUCAUACAUACAGUACUUGCAUGCUUAUCCUUACCCACAGAUGUACGACCCCAGCCAUCCUGCAUACCGGGCUGUUUCUCCC: 0.395 ratio
ACCCACACAGGGCGCUCGGAGAUUUUUUUUUUUUAAAGCAGGGUUAACUGUUUUUUGGCAGCUUGGUUUCUGGGGGACUCUAUAGAAGGCCUUUCGGGAUUUCUUUCUUUGGGGGGAGGG: 1.69 ratio
AAGGAACUGCAGGUUGAACUGUCUGGCUGAAGCAAUGGCGGGUAUGGCAAGCCCCUCCCAUAGUAAAUCCCCCUGCCUAUAUUAUAAUGGAUCAUGCGAUAUCAGUAUGGGAAGUGUAUG: 1.67 ratio
UGGCCAUCUCUGCCACUUCGGCACAGUAACCACCUUGGGACUAAGACCACCUAGAUAGUGAGAGCUGAACAACAACCAGACCAUGUCACACAAGCCAGAAACUCCAGUUACCUUUGCCAA: 0.244 ratio

Series 3
Target: Centromere-binding protein 1, full length, N-terminal tag (CBF1, Saccharomyces cerevisiae, UniProt P17106, residues 1-351)
Chain of UniProt P17106 (whole entry, looked up): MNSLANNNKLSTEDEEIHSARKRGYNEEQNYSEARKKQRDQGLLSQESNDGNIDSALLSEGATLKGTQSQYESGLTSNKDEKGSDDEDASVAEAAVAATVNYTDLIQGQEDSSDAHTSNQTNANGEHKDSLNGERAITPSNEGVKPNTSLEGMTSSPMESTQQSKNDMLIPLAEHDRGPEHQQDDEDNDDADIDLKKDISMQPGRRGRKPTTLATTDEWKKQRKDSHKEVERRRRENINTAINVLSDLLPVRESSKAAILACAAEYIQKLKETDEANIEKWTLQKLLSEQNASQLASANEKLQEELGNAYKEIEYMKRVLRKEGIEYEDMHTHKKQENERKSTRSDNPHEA
Technique: protein-binding microarray
Form: double-stranded DNA, one strand shown
Medium: in vitro
Tested at: 0.8 µM
Notes: whole 60-bp probe, no competitor
Reading: higher = stronger binding
Endpoint: fluorescence intensity
All sequences stand within: … GTCTTGATTCGCTTGACGCTGCTG
GAACCCACCTGCGGTGGTGTGGCACACGCATTCTAG: 519 a.u.
CTACGTTCACATAGTCACATAACCACTAGTCACTTC: 563 a.u.
GAAAAAATAGGGAAAAACGTGTACAAATGATTCTAG: 672 a.u.
TGTACGAAGCTATATCAGGGCCATATAGTAGTTAGG: 510 a.u.
CCTAACTACTATAATGTGATGACATAGCTTCGTACA: 571 a.u.
CTAGATGACTCTATAATCGTGGTCGGAACGTGCTTC: 616 a.u.
CTAGGTTTTTTACAGCTGATGATTGATGCATGATTC: 544 a.u.
GAACATGTGAAAAATCATGTGTTATTTCGTTAATAG: 892 a.u.
CTAGCAAGGATTGATAACGTGATAGGGTAATGATTC: 2080 a.u.
GAAGTTTGAAAACACCACGCAGCATTACGTCGTTAG: 556 a.u.
GAACTATAATATTGTTGCGTGACAGCAAGTCTTTAG: 763 a.u.
GAATGTATATATACGCATGTTCTTCATAAGTCATAG: 570 a.u.
CCTAACTACTATAACCGCATCACATAGCTTCGTACA: 556 a.u.
GAAAATGGTAACTGTGACCCATGTACTCCGCTATAG: 569 a.u.
CTATAAAAAGAAAAACACGAGGGGACCAGGTTGTTC: 617 a.u.
CTATACAGAGCAAGGAACGTGATGTAATGCATTTTC: 989 a.u.
GAAAAAGGACAACAGAGGGTGATGATATGAAAATAG: 616 a.u.
GAAGCACACAGAGGTTATGTGACCATGGTAACCTAG: 534 a.u.
GAAACTCAGGGGATTCATCTGATGATGGAAAAATAG: 564 a.u.

Series 4
Target: Histone acetyltransferase KAT6A, both winged helices, GST fusion (KAT6A, Homo sapiens, UniProt Q92794, residues 1-181)
Technique: protein binding microarray
Form: double-stranded DNA, one strand shown
Medium: in vitro
Tested at: not given
Notes: 8-mer, flanks averaged, mean of 2 arrays, mostly near background
Baseline: not given
Reading: higher = stronger binding
Endpoint: E-score
Target sequence (chain): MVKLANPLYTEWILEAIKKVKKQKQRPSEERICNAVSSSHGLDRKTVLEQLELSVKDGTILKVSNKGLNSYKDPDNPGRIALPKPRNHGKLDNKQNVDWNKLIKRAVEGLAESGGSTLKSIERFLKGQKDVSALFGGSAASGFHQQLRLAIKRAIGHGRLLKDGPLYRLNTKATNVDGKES
CATGCACC: 0.0275
TATGGTGA: -0.0408
CTTTCGGC: -0.0167
ATTCATGG: -0.0425
AAGAGCGG: 0.188
ACCGTGCA: -0.0393
GGGAATCA: 0.0393
TGCCTACA: -0.115
GCAGGCAA: -0.0147
AAAAGCGC: 0.301
GGGAGGAA: -0.0385
GACCTTAA: -0.0529
ACAAGTGG: -0.153
ACAAACTG: -0.208
ACCATTGA: -0.118
TATGCGAA: 0.103
AAGACGAT: -0.0434
GAGACGGC: 0.232
AAAGAATT: -0.0549
TCTCGCAA: 0.0209
ATGCAGGG: -0.16
AAAAGGCT: -0.143
CGCGCTAC: 0.373
GGGCCGCA: 0.188
CGGGTGAC: 0.243

Series 5
Target: RNA binding protein fox-1 homolog 2, RRM domain, GST-SBP tag (RBFOX2, Homo sapiens, UniProt O43251-10, residues 100-194)
Technique: RNA Bind-n-Seq
Form: RNA
Medium: in vitro
Tested at: 365 nM
Notes: natural RNA segment, single round, ends assumed
Baseline: no-protein control
Reading: higher = stronger binding
Endpoint: RBNS enrichment (R)
All sequences stand within: GGGAGUUCUACAGUCCGACGAUC … UGGAAUUCUCGGGUGCCAA
Construct (chain): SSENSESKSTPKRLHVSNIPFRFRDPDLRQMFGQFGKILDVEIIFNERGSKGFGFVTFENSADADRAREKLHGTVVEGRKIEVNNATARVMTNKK
UGGACCCACAGCCCUGACUUCACCUAGAAGACUGAAGCCUCCCCCUCCAACUCCCAUGCUGUGCGUGUCCCUCUGAGAACCAACUGAGGCUAGAACCCUAGGGUCCCUGC: 0.451
UAGCGUGUUCAUUCAGAUAAUGUUUUCUUACUAGGAAUUACAAACUUAAAACAUUUUUCAACCUUUAACAUAUUUUGUAAAAACUUAGGGGAGUCAAUUCCUCCAUUUUU: 0.79
AGAUGCACAAUCCUUUCCAACCUACAACUUCCUCAAAAUCCAGAGCCAGCCAAAGGAUCAAUGAAGGAUCAAGGUUGCCAGGCAAAGGUUGAGGAAGAAUGCCUGACUCA: 0.494
UUCUGUAAAGCCACUUGUCUGUGUGACACUGAGAUAAAAUAGGUCUUUGUUAUUUUCAACUGUUCUAUGCUGUGACGAUGAGGAGGAGAUGUCUGUUGGAUUCAUGUCUU: 0.445
AGUCACUACAUUAUCUCAGCAGAGAGACUUUAAUUAAACUGAUUUGUUUCCAAUGUCGGGUUCACUUAAAGGAUUUGACUUACCACCAGAGCAUAGAAAAGCAUGCAAGG: 1.04
UUCCUGGCUGGCACCUGGUGUUGAUUCGCGGAGUUUGGGGACAGAUUCUAUUUCCCCACACCUGUUCCUUUUCUCGGUUUGCUGAGGGCCUCUUGGAUCCACUGGCCCAG: 0.476
GUGUUGUGACACGGGACAACACAUGCCUCUGCAAGUGUGUGUGCCGUGGAUAGCCCCUUGGCUGCUCUCCUGCAGAGAGACAUCGGACAGACCUUAAUUCUUACUCACUG: 0.221
UUACAUGGGAAGAACUGCUCUAACCCACUGUGCUAAUGUUCAGAAGCAGAGCCCUCAGUGAGAGCUGCACACACGAGCCUCUAGCAUCACUACACAGUGUGCACACACUG: 0.424

Repeated from above (series 1):
ACAAAGAC: 0.16
CCCGCGGC: -0.287
CGACCACA: -0.182
ATAACCAG: 0.267
CCGCTGAG: -0.278
CAAGTTAC: 0.0566
CCTAGTAA: -0.0781
TGTAATAA: 0.413
GGATGAGA: -0.0394
ACCCATTC: -0.0449
